Measured values pooled from the literature.
Each line is one published result; not all experiments were run side by side. Numbers after ± are the reported error.
Cell line: HEK293

With `O=c1[nH]cc(F)c(=O)[nH]1` the EC50 was 93.3 µM (cell viability, MTT; 48 h, high affinity phase).
The IC50 of `Cc1ccc(Cn2cc(COc3nc4c(c(=O)n(C)c(=O)n4C)n3C)nn2)cc1` is reported as greater than 300 µM (cell growth or viability, MTT; 24 h).
For `CON=Cc1c(-c2ccccc2)[nH]c2ccccc12`, the viability was 51.8% (cell growth or viability; 50 µM).
The IC50 of `[O-][S+](c1ccccc1)c1ccc2nnnn2n1` (stereo not drawn) is reported as greater than 100 µM (cell growth or viability, ATP luminescence; 24 h).
For `Clc1ccc2[nH]c(-c3ccccc3)cc2c1`, the viability was 113% (cell growth or viability; 50 µM).
The IC50 of `CCCCCCCCCCn1cc(COc2nc3c(c(=O)n(C)c(=O)n3C)n2C)nn1` is reported as 194 µM (cell growth or viability, MTT; 24 h).
The viability of `O=[N+]([O-])c1ccc2[nH]c(-c3ccccc3)cc2c1` is reported as 68.2% (cell growth or viability; 50 µM).
`CCCCCn1cc(COc2nc3c(c(=O)n(C)c(=O)n3C)n2C)nn1` has an IC50 of greater than 300 µM (cell growth or viability, MTT; 24 h).
With `Cc1cc2nc(NCCCO)n(CC(=O)c3cc(C(C)(C)C)c(O)c(C(C)(C)C)c3)c2cc1C` the IC50 was 6.42 µM (cell growth or viability, ATP luminescence; 24 h).
With `Nc1nc2nc[nH]c2c(=S)[nH]1` the EC50 was 1410 µM (cell viability, MTT; 48 h, low affinity phase).
For `Nc1nc2c(ncn2[C@@H]2O[C@H](COP(=O)(O)OP(=O)(O)OP(=O)(O)OC[C@H]3O[C@@H](n4cnc5c(N)ncnc54)[C@H](O)[C@@H]3O)[C@@H](O)[C@H]2O)c(=O)[nH]1`, “relative protein expression” read 0.45 ± 0.21 (luciferase reporter; mRNA capped with cpd; baseline: m7GpppG-capped mRNA).
`CCCCCCCCn1cc(COc2nc3c(c(=O)n(C)c(=O)n3C)n2C)nn1` gave an IC50 of 194 µM (cell growth or viability, MTT; 24 h).
With `Nc1ccn([C@@H]2O[C@H](CO)[C@@H](O)C2(F)F)c(=O)n1` the EC50 was 380 µM (cell viability, MTT; 48 h, low affinity phase).
`Brc1ccc2[nH]c(-c3ccccc3)cc2c1` gave a viability of 86.1% (cell growth or viability; 50 µM).
For `O=C(c1ccc(Nc2nccc(-c3cc4ccccc4s3)n2)cc1)N1CCC(N2CCCC2)CC1`, the IC50 was 1.51 µM (cell growth or viability, ATP luminescence; 24 h).
`c1ccc(Cc2c(-c3ccccc3)n(Cc3ccccc3)c3ccccc23)cc1` has a viability of 124% (cell growth or viability; 50 µM).
For `[H]/N=C(\N/C(=N/[H])Nc1ccc(Cl)cc1)NC(C)C`, the IC50 was greater than 10 µM (oxygen consumption).
For `Nc1nc(Cl)nc2c1ncn2[C@@H]1O[C@H](CO)[C@@H](O)[C@@H]1F`, the EC50 was 0.123 µM (cell viability, MTT; 48 h, high affinity phase).
Under reporter activity, `CC(=O)O` is recorded as “increased” (mouse C10orf99 promoter luciferase, activator; concentration not given, 12 h, serum-free medium; baseline: empty vector).
The viability of `Nc1ccc(-c2cc3ccccc3[nH]2)cc1` is reported as 59.7% (cell growth or viability; 50 µM).
The IC50 of `Cn1c(=O)c2c(nc(OCc3cn(CCCc4ccccc4)nn3)n2C)n(C)c1=O` is reported as greater than 300 µM (cell growth or viability, MTT; 24 h).
`CC(C)(C)c1ccc(S(=O)(=O)/C=C/C#N)cc1` gave an IC50 of greater than 100 µM (cell growth or viability, ATP luminescence; 24 h).
The IC50 of `O=C1C(O)=C([C@H]2CC[C@H](c3ccc(Cl)cc3)CC2)C(=O)c2ccccc21` is reported as greater than 6 µM (oxygen consumption).
`COc1ccc(-c2cc3ccccc3[nH]2)cc1` has a viability of 85% (cell growth or viability; 50 µM).
The EC50 of `Nc1ccn([C@@H]2O[C@H](CO)[C@@H](O)[C@@H]2O)c(=O)n1` is reported as 0.676 µM (cell viability, MTT; 48 h, high affinity phase).
`COc1cc(OC)cc(-c2cc3ccccc3[nH]2)c1` gave a viability of 66.2% (cell growth or viability; 50 µM).
With `CC[PH](CC)(CC)[Au][S][C@@H]1O[C@H](COC(C)=O)[C@@H](OC(C)=O)[C@H](OC(C)=O)[C@H]1OC(C)=O` the IC50 was 1.7 µM (cell growth or viability, MTT).
